# Experimental data of several laboratories.
# Target: Serine/threonine-protein kinase VRK2 (VRK2, Homo sapiens, UniProt Q86Y07)
# Chain of UniProt Q86Y07 (whole entry, looked up): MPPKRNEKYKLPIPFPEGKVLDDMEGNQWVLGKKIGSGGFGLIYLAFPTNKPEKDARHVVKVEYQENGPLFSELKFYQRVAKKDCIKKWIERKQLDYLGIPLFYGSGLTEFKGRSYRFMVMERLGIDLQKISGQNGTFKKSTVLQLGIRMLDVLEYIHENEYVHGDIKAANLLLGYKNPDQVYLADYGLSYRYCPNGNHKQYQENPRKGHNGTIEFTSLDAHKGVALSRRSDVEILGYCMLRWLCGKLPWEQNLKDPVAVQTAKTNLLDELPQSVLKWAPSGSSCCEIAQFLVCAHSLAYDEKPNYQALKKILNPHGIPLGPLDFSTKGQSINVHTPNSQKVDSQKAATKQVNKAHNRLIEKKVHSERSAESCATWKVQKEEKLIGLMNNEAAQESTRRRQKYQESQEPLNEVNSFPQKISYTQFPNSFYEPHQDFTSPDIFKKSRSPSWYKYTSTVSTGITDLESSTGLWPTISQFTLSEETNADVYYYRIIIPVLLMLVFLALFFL
Structure (SMILES),assay,conditions,scale,measurement,value
CCN1CCN(Cc2ccc(C(=O)Nc3ccc(C)c(NCc4cnc5[nH]ccc5c4OC)c3)cc2C(F)(F)F)CC1,"binding, competition with immobilised ligand",1 µM,,remaining binding,75%
Cc1cc(NC(=O)[C@H](O)c2cc(F)cc(F)c2)ccc1-c1cnc(N)c(C(=O)NC(C)C)c1,"binding, competition with immobilised ligand",10 µM,,remaining binding,4.2%
CCn1cc(C(=O)O)c(=O)c2c(N)c(F)c(NC3CCCCC3)cc21,kinase activity,"0.1 µM, with: ATP at Km",,inhibition,-15%
Cc1ccc(-c2c(/C=C(\C#N)C(=O)NC(C)C)n(CCCO)c3ncnc(N)c23)cc1,"cell-free assay, competition with immobilised ligand",1 µM,,remaining binding,100%
NC(=O)C[C@H]1CCc2sc3ncnc(O[C@H]4CC[C@H](N5CCOCC5)CC4)c3c21,"enzyme activity, inhibitor",10 µM,,inhibition,-3%
Cc1cnc2nc1Nc1cccc(c1)COC/C=C/COCc1cc(ccc1OCCN1CCOCC1)N2,"binding, competition with immobilised ligand",0.1 µM,,remaining binding,76%
CCN1CCN(Cc2ccc(NC(=O)c3ccc(C)c(NC(=O)c4cncc(-c5cnn(C)c5)c4)c3)cc2C(F)(F)F)CC1,"binding, competition with immobilised ligand",1 µM,,remaining binding,100%
COc1c(OCCCN2CCOCC2)ccc2c1N=C(NC(=O)c1cnc(N)nc1)N1CCN=C21,"kinase activity, inhibitor",1 µM,relative to: untreated control,remaining activity,109%
CN1CCN(Cc2ccc(-c3ccc(CO[C@H]4CCC[C@@H]4NC(=O)c4cc(-c5cnn(C)c5)cnc4N)cc3)cc2)CC1,"enzyme activity, inhibitor",0.1 µM,,inhibition,11%
O=C(Cc1ccc(OCc2ccccc2)cc1)NC1(C(=O)O)CCN(C(=O)c2ccc(-c3cccc(Cl)c3)cc2)CC1,"enzyme activity, inhibitor",10 µM,,activity vs control,97%
COc1cc(Nc2nc(C)cc(-c3cnn4nc(OC)ccc34)n2)cc(C(F)(F)F)c1,"binding, competition with immobilised ligand",1 µM,,remaining binding,100%
O=C=[N][Ru-4]123([n]4c5ccc(O)cc5c5c6c(c7cc(F)c[n+]1c7c54)C(=O)NC6=O)[S+]1CC[S+]2CC[S+]3CC1 (centres unmarked),enzyme activity,"100 nM, human enzyme, with: 10 µM ATP",relative to: untreated,remaining activity,77%
CNC(=O)C1CCN(c2cc(C)c(F)cc2NC(=O)c2ccc(-c3cc(O)ccc3C)c(C)c2)CC1,"binding, competition with immobilised ligand",1 µM,,remaining binding,66%
COc1ccc(NC(=O)Nc2ccc3c(c2)C(=O)N(C(C)CO)CC(C)C(CN(C)Cc2ccc4c(c2)OCO4)O3)cc1 (centres unmarked),"kinase activity, KinaseProfiler","0.03 µM, species human",relative to: control,remaining activity,93%

# For quick reference, copied from above:
Structure (SMILES),assay,conditions,scale,measurement,value
CN1CCN(Cc2ccc(-c3ccc(CO[C@H]4CCC[C@@H]4NC(=O)c4cc(-c5cnn(C)c5)cnc4N)cc3)cc2)CC1,"enzyme activity, inhibitor",0.1 µM,,inhibition,11%
CNC(=O)C1CCN(c2cc(C)c(F)cc2NC(=O)c2ccc(-c3cc(O)ccc3C)c(C)c2)CC1,"binding, competition with immobilised ligand",1 µM,,remaining binding,66%
